Values quoted from earlier work that unrelated publications cite.
Numbered parts are unrelated; values within a part may stem from several laboratories.

Series 1
SMILES: CCOc1ccc(S(=O)(=O)Nc2ccc(Cl)cc2C#Cc2cnc(C(=O)O)cc2OC)c2ncccc12
Measurement: IC50
PTGER1: > 30 µM
human HTR6: 4.6 µM
SLC16A7 and SLC16A8; RT-4 (MCT2+/MCT3+): 0.638 µM

Other studies, line by line
COCCCC/C(=N\OCCN)c1ccc(C(F)(F)F)cc1  activity class (Toxoplasma gondii; parasite growth; concentration not given, published screen): inactive
COc1cc2c(Nc3ccc(Cl)c(Cl)c3F)ncnc2cc1OC[C@@H]1C[C@@H]2CN(C)C[C@@H]2C1  IC50 (HER2): 0.0161 µM
O=C(CCCCCCc1ccccc1)c1ncc(-c2ccccn2)o1  duration of lipid amide increase (item: AEA, OEA, PEA; mouse; 50 mg/kg, maximum 1 h): 1 h
C#Cc1cccc(Nc2ncnc3cc(OCCOC)c(OCCOC)cc23)c1  fraction unbound (brain): 0.096
CC[C@H]1OC(=O)[C@H](C)[C@@H](O[C@H]2C[C@@](C)(OC)[C@@H](O)[C@H](C)O2)[C@H](C)[C@@H](O[C@@H]2O[C@H](C)C[C@H](N(C)C)[C@H]2O)[C@](C)(OC)C[C@@H](C)C(=O)[C@H](C)[C@@H](O)[C@]1(C)O  antiparasitic activity (Toxoplasma gondii; parasite growth; concentration not given): active

Excerpt of the above (series 1):
SLC16A7 and SLC16A8; RT-4 (MCT2+/MCT3+): 0.638 µM
